Measurements from different studies.
Parts stem from different laboratories: compare values within a part only.
Sequence of UniProt Q9NRM7 (whole entry, looked up): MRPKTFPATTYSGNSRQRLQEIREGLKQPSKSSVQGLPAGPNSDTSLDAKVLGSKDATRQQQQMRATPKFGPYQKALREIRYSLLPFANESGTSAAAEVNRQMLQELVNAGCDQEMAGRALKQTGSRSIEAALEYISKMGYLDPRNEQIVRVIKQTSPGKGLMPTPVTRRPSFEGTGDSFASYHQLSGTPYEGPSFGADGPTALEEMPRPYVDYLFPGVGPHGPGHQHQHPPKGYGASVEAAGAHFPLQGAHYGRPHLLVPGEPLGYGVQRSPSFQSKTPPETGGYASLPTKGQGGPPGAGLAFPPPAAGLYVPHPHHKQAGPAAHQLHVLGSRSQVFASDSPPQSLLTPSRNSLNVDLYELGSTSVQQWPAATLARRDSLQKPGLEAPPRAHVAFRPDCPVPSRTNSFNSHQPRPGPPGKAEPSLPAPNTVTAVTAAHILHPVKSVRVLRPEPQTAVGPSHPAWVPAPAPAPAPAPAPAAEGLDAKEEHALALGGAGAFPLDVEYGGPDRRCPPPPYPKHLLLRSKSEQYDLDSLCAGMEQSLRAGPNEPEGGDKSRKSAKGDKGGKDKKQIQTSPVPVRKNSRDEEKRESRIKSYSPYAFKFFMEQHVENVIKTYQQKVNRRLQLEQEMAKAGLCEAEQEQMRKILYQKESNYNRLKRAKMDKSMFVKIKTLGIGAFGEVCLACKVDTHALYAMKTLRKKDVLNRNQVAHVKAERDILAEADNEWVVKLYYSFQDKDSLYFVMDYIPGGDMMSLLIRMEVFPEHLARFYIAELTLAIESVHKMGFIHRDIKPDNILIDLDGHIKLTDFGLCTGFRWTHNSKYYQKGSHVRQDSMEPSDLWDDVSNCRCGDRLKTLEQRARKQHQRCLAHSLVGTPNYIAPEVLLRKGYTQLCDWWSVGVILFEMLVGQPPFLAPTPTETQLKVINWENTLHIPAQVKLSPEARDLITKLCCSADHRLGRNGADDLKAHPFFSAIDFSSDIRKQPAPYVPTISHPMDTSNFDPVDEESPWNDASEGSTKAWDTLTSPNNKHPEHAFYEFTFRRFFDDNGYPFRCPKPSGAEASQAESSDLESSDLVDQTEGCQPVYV
Sequence of UniProt Q99640 (whole entry, looked up): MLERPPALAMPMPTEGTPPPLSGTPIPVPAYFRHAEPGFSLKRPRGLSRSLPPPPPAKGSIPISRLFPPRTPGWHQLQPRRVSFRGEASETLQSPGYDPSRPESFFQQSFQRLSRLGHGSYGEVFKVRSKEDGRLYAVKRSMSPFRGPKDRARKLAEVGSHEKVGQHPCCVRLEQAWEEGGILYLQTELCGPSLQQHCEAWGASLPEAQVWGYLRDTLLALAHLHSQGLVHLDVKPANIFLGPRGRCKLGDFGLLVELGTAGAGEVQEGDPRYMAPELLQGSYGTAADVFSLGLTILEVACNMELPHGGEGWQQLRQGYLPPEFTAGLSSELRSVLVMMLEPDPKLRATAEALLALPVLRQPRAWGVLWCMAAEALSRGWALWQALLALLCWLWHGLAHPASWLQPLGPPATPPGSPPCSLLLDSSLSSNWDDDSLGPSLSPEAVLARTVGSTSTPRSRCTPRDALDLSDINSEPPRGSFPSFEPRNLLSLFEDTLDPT
Sequence of UniProt Q9H1R3 (whole entry, looked up): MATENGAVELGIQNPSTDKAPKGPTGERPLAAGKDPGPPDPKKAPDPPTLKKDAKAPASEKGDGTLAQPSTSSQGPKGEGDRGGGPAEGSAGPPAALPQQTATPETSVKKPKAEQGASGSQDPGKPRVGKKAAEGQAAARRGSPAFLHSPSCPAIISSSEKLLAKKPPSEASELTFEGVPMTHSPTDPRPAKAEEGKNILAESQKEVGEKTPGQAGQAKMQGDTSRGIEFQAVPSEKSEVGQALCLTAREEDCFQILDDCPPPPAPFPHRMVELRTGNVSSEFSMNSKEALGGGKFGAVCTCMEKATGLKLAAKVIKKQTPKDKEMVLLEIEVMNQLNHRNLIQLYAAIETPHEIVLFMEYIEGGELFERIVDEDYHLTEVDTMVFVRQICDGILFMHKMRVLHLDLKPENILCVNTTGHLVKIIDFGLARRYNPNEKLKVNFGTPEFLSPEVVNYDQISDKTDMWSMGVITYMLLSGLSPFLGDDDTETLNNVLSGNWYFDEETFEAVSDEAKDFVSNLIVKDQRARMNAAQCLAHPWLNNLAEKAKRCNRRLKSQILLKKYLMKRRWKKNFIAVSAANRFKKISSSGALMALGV
Sequence of UniProt O75676 (whole entry, looked up): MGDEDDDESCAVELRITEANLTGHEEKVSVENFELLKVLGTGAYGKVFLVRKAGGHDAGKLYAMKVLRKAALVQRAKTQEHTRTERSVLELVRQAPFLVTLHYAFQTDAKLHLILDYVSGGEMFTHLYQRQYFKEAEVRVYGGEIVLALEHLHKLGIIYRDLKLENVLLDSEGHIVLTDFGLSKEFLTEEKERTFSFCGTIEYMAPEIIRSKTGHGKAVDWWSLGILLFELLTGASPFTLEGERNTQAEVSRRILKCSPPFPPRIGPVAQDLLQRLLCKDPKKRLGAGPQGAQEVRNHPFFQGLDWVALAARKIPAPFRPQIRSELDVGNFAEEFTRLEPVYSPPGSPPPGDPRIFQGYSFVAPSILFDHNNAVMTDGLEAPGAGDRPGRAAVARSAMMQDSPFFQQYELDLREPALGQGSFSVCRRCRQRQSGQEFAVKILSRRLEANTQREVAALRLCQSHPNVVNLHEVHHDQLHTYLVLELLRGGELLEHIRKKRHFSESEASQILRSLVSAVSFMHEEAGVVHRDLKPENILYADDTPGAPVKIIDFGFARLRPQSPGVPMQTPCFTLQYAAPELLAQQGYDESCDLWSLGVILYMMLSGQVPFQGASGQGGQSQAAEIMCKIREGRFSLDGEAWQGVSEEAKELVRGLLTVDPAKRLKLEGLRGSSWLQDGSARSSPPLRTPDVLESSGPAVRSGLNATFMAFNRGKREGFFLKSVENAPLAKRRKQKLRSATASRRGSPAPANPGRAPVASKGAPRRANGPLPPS
Sequence of UniProt Q8NEB9 (whole entry, looked up): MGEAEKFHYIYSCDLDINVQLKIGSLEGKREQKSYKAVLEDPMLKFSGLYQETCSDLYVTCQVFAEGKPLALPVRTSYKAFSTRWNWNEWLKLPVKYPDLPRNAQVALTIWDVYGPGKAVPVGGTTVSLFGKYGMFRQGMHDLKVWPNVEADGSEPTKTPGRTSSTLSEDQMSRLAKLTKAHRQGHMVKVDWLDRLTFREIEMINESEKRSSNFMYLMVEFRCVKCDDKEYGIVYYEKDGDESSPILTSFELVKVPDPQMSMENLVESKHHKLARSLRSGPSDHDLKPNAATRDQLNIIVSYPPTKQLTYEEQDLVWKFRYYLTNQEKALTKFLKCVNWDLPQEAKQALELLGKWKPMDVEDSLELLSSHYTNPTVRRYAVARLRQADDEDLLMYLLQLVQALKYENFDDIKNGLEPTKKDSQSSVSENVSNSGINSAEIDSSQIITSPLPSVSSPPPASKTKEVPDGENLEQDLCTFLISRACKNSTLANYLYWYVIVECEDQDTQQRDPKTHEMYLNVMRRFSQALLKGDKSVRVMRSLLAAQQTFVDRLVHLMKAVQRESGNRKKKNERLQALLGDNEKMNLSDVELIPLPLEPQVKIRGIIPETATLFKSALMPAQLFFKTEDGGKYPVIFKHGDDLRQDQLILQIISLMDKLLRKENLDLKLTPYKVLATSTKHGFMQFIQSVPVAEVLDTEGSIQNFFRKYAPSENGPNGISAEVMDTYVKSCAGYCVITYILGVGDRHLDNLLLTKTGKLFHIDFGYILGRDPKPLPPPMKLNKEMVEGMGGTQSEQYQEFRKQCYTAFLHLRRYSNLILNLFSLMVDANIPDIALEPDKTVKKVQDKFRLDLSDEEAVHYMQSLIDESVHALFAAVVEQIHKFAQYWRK
Sequence of UniProt Q9UBE8 (whole entry, looked up): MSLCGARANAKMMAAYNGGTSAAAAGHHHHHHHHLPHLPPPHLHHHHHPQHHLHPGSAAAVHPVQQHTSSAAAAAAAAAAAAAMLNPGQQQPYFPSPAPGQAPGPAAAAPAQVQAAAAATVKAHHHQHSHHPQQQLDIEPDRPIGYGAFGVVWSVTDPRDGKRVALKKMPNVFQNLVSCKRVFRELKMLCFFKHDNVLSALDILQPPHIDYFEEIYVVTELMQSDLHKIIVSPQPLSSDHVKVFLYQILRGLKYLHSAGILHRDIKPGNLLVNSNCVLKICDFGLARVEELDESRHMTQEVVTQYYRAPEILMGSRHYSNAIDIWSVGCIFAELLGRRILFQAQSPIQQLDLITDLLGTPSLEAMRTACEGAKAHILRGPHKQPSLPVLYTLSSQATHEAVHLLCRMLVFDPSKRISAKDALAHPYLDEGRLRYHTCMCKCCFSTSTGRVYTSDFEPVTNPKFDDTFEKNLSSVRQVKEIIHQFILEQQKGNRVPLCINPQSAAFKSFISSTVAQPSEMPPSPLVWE

Sample 1 — effect on: enzyme activity; mode: inhibitor; concentration: 0.5 µM; relative to: control
Target: Protein kinase C gamma type (PRKCG, Homo sapiens, UniProt P05129)
With `CN(C)CCCn1cc(C2=C(c3c[nH]c4ccccc34)C(=O)NC2=O)c2ccccc21` the remaining activity was 17.6%.
With `COc1cc2ncc(-c3ccccc3)nc2cc1OC` the remaining activity was 101%.
`COc1cc2ncnc(N3CCN(C(=O)Nc4ccc(Oc5ccccc5)cc4)CC3)c2cc1OC` gave a remaining activity of 104%.
`O=c1cc(N2CCOCC2)oc2c1ccc1ccccc12` has a remaining activity of 101%.
The remaining activity of `O=C(Nc1ccc(Cl)cc1)c1ccccc1NCc1ccncc1` is reported as 102%.

Sample 2 — species: human; sample: microsomes or S9; concentration: 2 µM; time: 0.5 h
For `CCN(CC)CCNc1c2c(nc3cc(-c4cccc(F)c4)nn13)CCCC2`, the remaining compound was 0.238%.
With `CN1Cc2ccccc2N(CCN2CCC(c3ccc(Cl)cc3C(=O)NCCN3CCN(C(=O)OC(C)(C)C)CC3)CC2)C1=O` the remaining compound was 3.95%.
`O=C(O)C1C[S+]([O-])C2c3ccccc3C(=O)N12` (stereo not shown) gave a remaining compound of 21.4%.

Sample 3 — method: RNA Bind-n-Seq; molecule type: RNA; sample: in vitro; concentration: 20 nM; setting: 6-mer, flanks averaged, single round; together with: 150 mM LiCl; relative to: input library; reading: higher = stronger binding
Target: TAR DNA-binding protein 43, full length, His tag (TARDBP, Homo sapiens, UniProt Q13148, residues 1-414)
For `UUCACU`, “6-mer enrichment (R)” read 0.884.
`AGCACU`: “6-mer enrichment (R)” 0.83.
`AUCUAU`: “6-mer enrichment (R)” 0.892.
Under “6-mer enrichment (R)”, `UAUGUG` is recorded as 1.61.
`CUAGUC`: “6-mer enrichment (R)” 0.835.
`CGUGUA` — result for “6-mer enrichment (R)”: 1.09.
Under “6-mer enrichment (R)”, `GUUUGU` is recorded as 1.69.
For `CGACAA`, “6-mer enrichment (R)” read 0.788.

Sample 4 — SMILES: O=c1nc(-c2ccccn2)sc2ccccc12; method: competition with immobilised ligand; concentration: 1 µM
For EGFR (Homo sapiens, UniProt P00533, A750P/del747-749); cell-free assay: remaining binding read 70%.
PIK3C3 (Homo sapiens, UniProt Q8NEB9); cell-free assay — remaining binding: 82%.
TNK2 (Homo sapiens, UniProt Q07912); binding — remaining binding: 100%.
PKMYT1 (Homo sapiens, UniProt Q99640); binding — remaining binding: 100%.
For LATS2 (Homo sapiens, UniProt Q9NRM7); binding: remaining binding read 79%.
For Myosin-IIIa (MYO3A, Homo sapiens, UniProt Q8NEV4); binding: remaining binding read 92%.
LTK (Homo sapiens, UniProt P29376); cell-free assay — remaining binding: 99%.
The remaining binding was 100% (NEK10 (Homo sapiens, UniProt Q6ZWH5); binding).
It gave 94% for remaining binding (PAK1 (Homo sapiens, UniProt Q13153); cell-free assay).
It gave 100% for remaining binding (MAPK9 (Homo sapiens, UniProt P45984); binding).
MYLK2 (Homo sapiens, UniProt Q9H1R3); binding — remaining binding: 100%.
Ribosomal protein S6 kinase alpha-4, C-terminal kinase domain (RPS6KA4, Homo sapiens, UniProt O75676); binding — remaining binding: 80%.
It gave 80% for remaining binding (CLK2 (Homo sapiens, UniProt P49760); binding).
It gave 100% for remaining binding (NLK (Homo sapiens, UniProt Q9UBE8); binding).
It gave 88% for remaining binding (Ribosomal protein S6 kinase alpha-3, C-terminal kinase domain (RPS6KA3, Homo sapiens, UniProt P51812); binding).

For quick reference, copied from above (sample 4):
It gave 94% for remaining binding (PAK1 (Homo sapiens, UniProt Q13153); cell-free assay).
It gave 100% for remaining binding (MAPK9 (Homo sapiens, UniProt P45984); binding).
MYLK2 (Homo sapiens, UniProt Q9H1R3); binding — remaining binding: 100%.
Ribosomal protein S6 kinase alpha-4, C-terminal kinase domain (RPS6KA4, Homo sapiens, UniProt O75676); binding — remaining binding: 80%.
